Published values pooled from the literature.
Numbered parts are unrelated; each lists some results of a single study.
UniProt P10721, sequence (whole entry, unmodified, looked up): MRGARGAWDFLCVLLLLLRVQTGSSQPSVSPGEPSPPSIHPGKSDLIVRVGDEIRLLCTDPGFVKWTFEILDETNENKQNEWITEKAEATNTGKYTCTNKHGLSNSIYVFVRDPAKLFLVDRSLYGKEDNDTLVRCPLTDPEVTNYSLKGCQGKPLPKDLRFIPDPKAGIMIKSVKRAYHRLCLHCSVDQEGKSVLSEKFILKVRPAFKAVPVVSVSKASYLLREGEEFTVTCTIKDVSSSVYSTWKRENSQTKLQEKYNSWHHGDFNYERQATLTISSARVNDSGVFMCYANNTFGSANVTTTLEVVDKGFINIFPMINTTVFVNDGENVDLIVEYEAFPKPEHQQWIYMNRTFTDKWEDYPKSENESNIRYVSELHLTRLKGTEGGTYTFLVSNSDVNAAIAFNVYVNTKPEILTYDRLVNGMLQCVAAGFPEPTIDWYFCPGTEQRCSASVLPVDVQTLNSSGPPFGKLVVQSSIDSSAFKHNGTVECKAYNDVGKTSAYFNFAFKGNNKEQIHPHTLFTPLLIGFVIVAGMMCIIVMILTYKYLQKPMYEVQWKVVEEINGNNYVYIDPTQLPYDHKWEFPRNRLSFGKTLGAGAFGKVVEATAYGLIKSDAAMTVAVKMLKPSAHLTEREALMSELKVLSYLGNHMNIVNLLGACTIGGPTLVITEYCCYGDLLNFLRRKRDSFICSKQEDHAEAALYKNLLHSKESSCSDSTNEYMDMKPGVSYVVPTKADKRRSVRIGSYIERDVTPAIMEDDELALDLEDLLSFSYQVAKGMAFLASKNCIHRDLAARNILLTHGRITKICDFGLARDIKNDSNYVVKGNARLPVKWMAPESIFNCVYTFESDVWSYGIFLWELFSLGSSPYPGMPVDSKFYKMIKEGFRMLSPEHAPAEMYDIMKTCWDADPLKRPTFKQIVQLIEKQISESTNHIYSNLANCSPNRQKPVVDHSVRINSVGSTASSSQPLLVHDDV
UniProt P51813, sequence (whole entry, looked up): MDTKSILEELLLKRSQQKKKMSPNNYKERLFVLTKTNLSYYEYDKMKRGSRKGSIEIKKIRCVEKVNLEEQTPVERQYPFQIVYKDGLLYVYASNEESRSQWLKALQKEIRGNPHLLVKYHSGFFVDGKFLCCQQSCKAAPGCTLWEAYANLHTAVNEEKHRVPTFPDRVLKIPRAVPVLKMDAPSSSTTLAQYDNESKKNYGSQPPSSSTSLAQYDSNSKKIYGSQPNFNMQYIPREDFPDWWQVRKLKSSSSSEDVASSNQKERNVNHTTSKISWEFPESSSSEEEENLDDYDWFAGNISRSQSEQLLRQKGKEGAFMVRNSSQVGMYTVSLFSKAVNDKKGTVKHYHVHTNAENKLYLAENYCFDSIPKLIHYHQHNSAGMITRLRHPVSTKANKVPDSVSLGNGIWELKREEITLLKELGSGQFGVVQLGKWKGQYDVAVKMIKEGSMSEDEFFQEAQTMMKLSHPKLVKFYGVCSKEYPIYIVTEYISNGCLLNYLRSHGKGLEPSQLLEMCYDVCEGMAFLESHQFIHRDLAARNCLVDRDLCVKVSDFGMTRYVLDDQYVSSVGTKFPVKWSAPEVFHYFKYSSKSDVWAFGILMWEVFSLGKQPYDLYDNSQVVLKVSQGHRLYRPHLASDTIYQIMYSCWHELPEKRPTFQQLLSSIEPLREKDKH
UniProt P21860, sequence (whole entry, looked up): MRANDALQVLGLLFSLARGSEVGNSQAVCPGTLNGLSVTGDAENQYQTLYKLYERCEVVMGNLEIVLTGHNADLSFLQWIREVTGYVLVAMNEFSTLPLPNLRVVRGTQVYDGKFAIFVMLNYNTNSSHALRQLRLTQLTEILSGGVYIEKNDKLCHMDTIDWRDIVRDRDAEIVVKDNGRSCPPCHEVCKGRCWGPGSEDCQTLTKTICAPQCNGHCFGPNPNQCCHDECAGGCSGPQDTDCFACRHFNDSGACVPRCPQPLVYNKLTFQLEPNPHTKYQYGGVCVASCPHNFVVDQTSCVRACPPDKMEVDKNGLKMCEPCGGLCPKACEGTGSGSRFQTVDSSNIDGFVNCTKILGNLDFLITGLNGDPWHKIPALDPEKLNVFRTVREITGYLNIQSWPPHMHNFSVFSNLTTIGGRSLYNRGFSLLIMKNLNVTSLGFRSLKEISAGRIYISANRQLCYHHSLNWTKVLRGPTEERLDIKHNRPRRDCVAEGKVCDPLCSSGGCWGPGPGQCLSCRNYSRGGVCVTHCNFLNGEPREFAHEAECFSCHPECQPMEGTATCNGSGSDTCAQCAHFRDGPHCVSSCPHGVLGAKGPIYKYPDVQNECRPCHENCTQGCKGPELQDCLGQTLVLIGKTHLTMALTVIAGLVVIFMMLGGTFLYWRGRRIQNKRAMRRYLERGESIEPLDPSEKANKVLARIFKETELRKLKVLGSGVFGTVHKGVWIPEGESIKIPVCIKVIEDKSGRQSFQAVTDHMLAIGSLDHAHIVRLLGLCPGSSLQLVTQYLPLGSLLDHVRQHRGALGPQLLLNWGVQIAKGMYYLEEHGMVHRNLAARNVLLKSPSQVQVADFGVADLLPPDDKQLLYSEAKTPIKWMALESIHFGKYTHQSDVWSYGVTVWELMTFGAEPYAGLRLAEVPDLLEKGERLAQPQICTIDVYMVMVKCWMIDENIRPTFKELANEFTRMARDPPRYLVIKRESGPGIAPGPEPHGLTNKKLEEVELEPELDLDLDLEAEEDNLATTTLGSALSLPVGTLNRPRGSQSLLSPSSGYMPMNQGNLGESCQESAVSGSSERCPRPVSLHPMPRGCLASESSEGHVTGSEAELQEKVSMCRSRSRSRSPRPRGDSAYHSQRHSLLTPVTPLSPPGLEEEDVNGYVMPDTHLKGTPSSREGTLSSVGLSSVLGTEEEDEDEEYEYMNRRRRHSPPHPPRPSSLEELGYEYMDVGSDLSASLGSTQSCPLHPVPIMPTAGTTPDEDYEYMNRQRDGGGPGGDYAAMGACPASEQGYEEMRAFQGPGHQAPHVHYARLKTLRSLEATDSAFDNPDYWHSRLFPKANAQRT
UniProt Q16584, sequence (whole entry, looked up): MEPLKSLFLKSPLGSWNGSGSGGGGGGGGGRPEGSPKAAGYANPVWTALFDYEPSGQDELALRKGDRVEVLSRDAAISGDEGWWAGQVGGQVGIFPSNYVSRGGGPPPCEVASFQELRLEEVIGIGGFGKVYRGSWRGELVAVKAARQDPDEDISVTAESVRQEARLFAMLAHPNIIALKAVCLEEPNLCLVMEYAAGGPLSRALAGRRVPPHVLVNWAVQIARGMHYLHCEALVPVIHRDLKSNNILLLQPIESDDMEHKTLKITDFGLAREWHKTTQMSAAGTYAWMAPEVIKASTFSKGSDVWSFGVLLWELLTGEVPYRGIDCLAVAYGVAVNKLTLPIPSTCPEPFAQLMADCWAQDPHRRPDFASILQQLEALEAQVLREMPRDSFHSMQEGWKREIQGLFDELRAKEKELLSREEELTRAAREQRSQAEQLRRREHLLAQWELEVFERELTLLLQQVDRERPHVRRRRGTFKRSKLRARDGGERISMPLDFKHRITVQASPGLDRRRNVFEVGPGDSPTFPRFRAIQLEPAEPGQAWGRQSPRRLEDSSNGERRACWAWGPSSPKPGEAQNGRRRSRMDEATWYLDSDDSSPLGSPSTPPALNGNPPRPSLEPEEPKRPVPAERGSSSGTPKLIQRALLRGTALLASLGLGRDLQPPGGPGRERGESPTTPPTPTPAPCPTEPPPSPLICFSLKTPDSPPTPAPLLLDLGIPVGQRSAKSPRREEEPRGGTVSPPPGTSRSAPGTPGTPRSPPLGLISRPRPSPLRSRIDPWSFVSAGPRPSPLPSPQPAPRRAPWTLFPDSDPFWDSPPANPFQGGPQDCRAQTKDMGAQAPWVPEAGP
UniProt Q9HAZ1, sequence (whole entry, looked up): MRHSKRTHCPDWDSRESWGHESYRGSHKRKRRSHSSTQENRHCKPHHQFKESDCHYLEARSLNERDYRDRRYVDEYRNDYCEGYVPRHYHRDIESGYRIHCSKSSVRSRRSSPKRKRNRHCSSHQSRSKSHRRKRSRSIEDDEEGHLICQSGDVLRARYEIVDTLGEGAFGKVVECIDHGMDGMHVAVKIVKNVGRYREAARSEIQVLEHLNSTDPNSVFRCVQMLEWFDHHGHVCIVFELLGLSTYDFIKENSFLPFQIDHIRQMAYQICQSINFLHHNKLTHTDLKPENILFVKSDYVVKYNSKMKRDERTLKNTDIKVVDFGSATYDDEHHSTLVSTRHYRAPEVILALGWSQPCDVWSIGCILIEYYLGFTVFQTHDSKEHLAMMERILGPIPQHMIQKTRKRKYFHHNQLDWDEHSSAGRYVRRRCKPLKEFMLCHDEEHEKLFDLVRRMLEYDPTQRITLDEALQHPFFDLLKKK

Series 1 — cell line: A-375; concentration: 100 µM; time: 18 h
With `O=S(=O)(O)Oc1ccc(C(c2ccc(OS(=O)(=O)O)cc2)c2ccccn2)cc1` the viability was 104%.
The viability of `CC(=O)OC(C)C(C)C(=O)OC[C@@]12[C@H]3C[C@]4(C)C(=CC[C@@H]5[C@@]6(C)CC[C@H](O[C@@H]7O[C@H](C(=O)O)[C@@H](O[C@@H]8O[C@H](CO)[C@@H](O)[C@H](O)[C@H]8O)[C@H](O)[C@H]7O[C@@H]7OC[C@@H](O)[C@H](O)[C@H]7O)[C@@](C)(CO)[C@@H]6CC[C@]54C)[C@@H]1CC(C)(C)[C@H](O3)[C@@H]2O` (some centres unmarked) is reported as 7.9%.
`Cc1nnc(SCC2=C(C(=O)O)N3C(=O)[C@@H](NC(=O)Cn4cnnn4)[C@H]3SC2)s1` has a viability of 102%.
The viability of `COc1cc2nc(N3CCN(C(=O)C4CCCO4)CC3)nc(N)c2cc1OC` (centres unmarked) is reported as 57.9%.
For `CCS(=O)(=O)CCn1c([N+](=O)[O-])cnc1C`, the viability was 94.4%.
`CCCN(CCC)CCc1cccc2c1CC(=O)N2` gave a viability of 91.3%.
`CC1CNc2c(cccc2S(=O)(=O)N[C@@H](CCCNC(=N)N)C(=O)N2CC[C@@H](C)C[C@@H]2C(=O)O)C1` (some centres unmarked) gave a viability of 79.7%.
`CCCCCCCCCCCCCCCC(=O)OC/C=C(C)/C=C/C=C(C)/C=C/C1=C(C)CCCC1(C)C` has a viability of 71.1%.
With `Cc1cc(O)c2c(c1)C(=O)c1cccc(O)c1C2=O` the viability was 102%.
`C=C(c1ccc(C(=O)O)cc1)c1cc2c(cc1C)C(C)(C)CCC2(C)C` gave a viability of 10.7%.

Series 2 — effect on: cell-free assay; method: competition with immobilised ligand; concentration: 1 µM
Structure (SMILES): COc1cc(-c2cn(C3CCc4ccccc4N(CC(F)(F)F)C3=O)nn2)ccc1-n1ccc(C)n1 (centres unmarked)
For PRKCD (Homo sapiens, UniProt Q05655): remaining binding read 98%.
It gave 100% for remaining binding (PIK3C2B (Homo sapiens, UniProt O00750)).
The remaining binding was 77% (ERBB3 (Homo sapiens, UniProt P21860)).
CIT (Homo sapiens, UniProt O14578) — remaining binding: 100%.
For EPHA5 (Homo sapiens, UniProt P54756): remaining binding read 100%.
The remaining binding was 100% (STK38 (Homo sapiens, UniProt Q15208)).
The remaining binding was 97% (Ribosomal protein S6 kinase alpha-3, N-terminal kinase domain (RPS6KA3, Homo sapiens, UniProt P51812)).
EGFR (Homo sapiens, UniProt P00533, L861Q) — remaining binding: 100%.
The remaining binding was 84% (SGK3 (Homo sapiens, UniProt Q96BR1)).
MAP3K11 (Homo sapiens, UniProt Q16584) — remaining binding: 100%.
The remaining binding was 97% (Ribosomal protein S6 kinase alpha-4, C-terminal kinase domain (RPS6KA4, Homo sapiens, UniProt O75676)).
CLK4 (Homo sapiens, UniProt Q9HAZ1) — remaining binding: 80%.
For FGFR2 (Homo sapiens, UniProt P21802): remaining binding read 100%.
The remaining binding was 98% (CSNK1A1 (Homo sapiens, UniProt P48729)).
It gave 69% for remaining binding (MAP3K14 (Homo sapiens, UniProt Q99558)).
For TNK1 (Homo sapiens, UniProt Q13470): remaining binding read 100%.
The remaining binding was 97% (AKT1 (Homo sapiens, UniProt P31749)).
It gave 100% for remaining binding (KIT (Homo sapiens, UniProt P10721, D816V)).
It gave 82% for remaining binding (HIPK2 (Homo sapiens, UniProt Q9H2X6)).
For PIK3CA (Homo sapiens, UniProt P42336, H1047Y): remaining binding read 100%.
It gave 100% for remaining binding (PIKFYVE (Homo sapiens, UniProt Q9Y2I7)).
For SNRK (Homo sapiens, UniProt Q9NRH2): remaining binding read 99%.
It gave 100% for remaining binding (FGFR4 (Homo sapiens, UniProt P22455)).
For BMX (Homo sapiens, UniProt P51813): remaining binding read 100%.
For KIT (Homo sapiens, UniProt P10721): remaining binding read 96%.

Series 3 — sample: hydrocarbon/water; pH: 7.4
With `CC(C)CC1NC(=O)CN(CC2CCCCC2)C(=O)C2CCCN2C(=O)C(CC(C)C)NC(=O)C(C)N(C)C(=O)C(CC(C)C)NC(=O)CN(Cc2ccc3c(c2)OCO3)C(=O)C2CCCN2C(=O)C(Cc2ccccc2)NC(=O)C(C)N(C)C1=O` (centres unmarked) the logD was at least 3.4.
For `CC(C)C[C@@H]1NC(=O)CN(CCCOC(C)C)C(=O)[C@H](C)NC(=O)[C@H](CC(C)C)N(C)C(=O)[C@H]2CCCN2C(=O)[C@H](C)NC(=O)CN(CC2CCCCC2)C(=O)[C@H](C)NC(=O)[C@H](CC(C)C)N(C)C(=O)[C@H]2CCCN2C1=O`, the logD was 2.
`CCC[C@@H]1NC(=O)[C@H](C)N(C)C(=O)[C@H](CC(C)C)NC(=O)Cn2cc(nn2)CN(C)C(=O)[C@H](CC(C)C)NC(=O)[C@H](C)N(C)C(=O)[C@H](CC(C)C)NC(=O)CN(CC)C(=O)[C@H]2CCCN2C1=O` has a logD of -0.997.
With `CCC[C@H]1C(=O)N[C@@H](CC2CCCCC2)C(=O)N(C)[C@@H](C)C(=O)N[C@@H](CC(C)C)C(=O)N(C)Cc2cn(nn2)CC(=O)N[C@@H](CC(C)C)C(=O)N(C)[C@@H](C)C(=O)N[C@@H](C2CCCCC2)C(=O)N2CCC[C@@H]2C(=O)N1C` the logD was 1.76.
`CCCCCN1CC(=O)NC(CC(C)C)C(=O)N(C)C(C)C(=O)NC(C)C(=O)N2CCCC2C(=O)N(CC)CC(=O)NC(CC(C)C)C(=O)N(C)C(C)C(=O)NC(CC(C)C)C(=O)N2CCCC2C1=O` (centres unmarked) has a logD of 2.16.
`CC(C)C[C@@H]1NC(=O)[C@H](Cc2ccc(O)cc2)N(C)C(=O)[C@H]2CCCN2C(=O)[C@H](CC(C)C)NC(=O)[C@H](C)N(C)C(=O)[C@@H](C)N(C)C1=O` gave a logD of -0.866.
With `CCCCCN1CC(=O)NC(CC(C)C)C(=O)N(C)C(C)C(=O)NC(Cc2ccccc2)C(=O)N2CCCC2C(=O)N(CCCOC(C)C)CC(=O)NC(CC(C)C)C(=O)N(C)C(C)C(=O)NC(CC(C)C)C(=O)N2CCCC2C1=O` (centres unmarked) the logD was at least 3.32.
The logD of `CC(C)C[C@@H]1NC(=O)[C@H](C)N(C)C(=O)[C@H](CC2CCCCC2)NC(=O)CN(CC(C)C)C(=O)[C@H]2CCCN2C(=O)[C@H](CC2CCCCC2)NC(=O)[C@H](C)N(C)C(=O)[C@H](C2CCCCC2)NC(=O)Cn2cc(nn2)CN(C)C1=O` is reported as 3.16.
`CCN1CC(=O)NC(CC(C)C)C(=O)N(C)C(C)C(=O)NC(CC(C)C)C(=O)N2CCCC2C(=O)N(CC2CCCCC2)CC(=O)NC(CC(C)C)C(=O)N(C)C(C)C(=O)NC(Cc2ccccc2)C(=O)N2CCCC2C1=O` (centres unmarked) has a logD of at least 3.4.
`CCN1CC(=O)N[C@@H](CC(C)C)C(=O)N2CCC[C@@H]2C(=O)N(C)[C@@H](CC(C)C)C(=O)N[C@@H](C)C(=O)N(CC2CCCCC2)CC(=O)N[C@@H](Cc2ccccc2)C(=O)N2CCC[C@@H]2C(=O)N(C)[C@@H](CC(C)C)C(=O)N[C@@H](C)C1=O` has a logD of 2.33.
The logD of `CCCN1CC(=O)N[C@@H](CC2CCCCC2)C(=O)N(C)[C@@H](C)C(=O)N[C@@H](CC(C)C)C(=O)N(C)Cc2cn(nn2)CC(=O)N[C@@H](C2CCCCC2)C(=O)N(C)[C@@H](C)C(=O)N[C@@H](CC2CCCCC2)C(=O)N2CCC[C@@H]2C1=O` is reported as 2.77.

Series 4 — effect on: enzyme activity; action: inhibitor; concentration: 0.5 µM; relative to: control
Target: Wee1-like protein kinase (WEE1, Homo sapiens, UniProt P30291)
UniProt P30291, sequence (whole entry, looked up): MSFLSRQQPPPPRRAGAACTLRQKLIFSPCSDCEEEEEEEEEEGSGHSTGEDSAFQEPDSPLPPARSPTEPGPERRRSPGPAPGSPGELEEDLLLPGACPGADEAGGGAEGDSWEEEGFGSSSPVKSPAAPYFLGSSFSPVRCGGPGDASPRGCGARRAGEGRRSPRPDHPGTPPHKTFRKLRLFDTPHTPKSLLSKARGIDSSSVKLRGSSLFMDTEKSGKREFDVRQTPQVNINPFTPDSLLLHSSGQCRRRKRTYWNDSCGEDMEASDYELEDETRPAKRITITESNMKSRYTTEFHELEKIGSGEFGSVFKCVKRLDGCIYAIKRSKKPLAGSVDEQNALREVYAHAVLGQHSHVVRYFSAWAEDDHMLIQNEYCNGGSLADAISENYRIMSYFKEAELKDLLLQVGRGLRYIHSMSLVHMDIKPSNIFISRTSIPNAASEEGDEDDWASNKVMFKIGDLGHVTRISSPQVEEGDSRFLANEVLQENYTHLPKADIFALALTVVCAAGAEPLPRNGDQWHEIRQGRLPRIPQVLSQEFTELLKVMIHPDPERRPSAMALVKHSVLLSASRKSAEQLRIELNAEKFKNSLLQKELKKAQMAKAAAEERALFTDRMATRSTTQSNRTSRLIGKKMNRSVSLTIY
For `c1ccc(-c2[nH]ncc2-c2ccnc3ccccc23)nc1`, the remaining activity was 91.1%.
The remaining activity of `O=C1c2ccccc2-c2n[nH]c3cccc1c23` is reported as 91.3%.
With `CCN(CC)CCNC(=O)c1c(C)[nH]c(/C=C2\C(=O)Nc3ccc(F)cc32)c1C` the remaining activity was 91.8%.
`Ic1cccc(CSc2nnc(-c3ccncc3)o2)c1` gave a remaining activity of 97.2%.
With `Cn1nc2c3c(cccc31)C(=O)c1ccccc1-2` the remaining activity was 92.3%.
The remaining activity of `Cc1nc2cc3nc(-c4cccs4)cnc3cc2n1C` is reported as 86.9%.
`N#C/C(=C\c1ccc(O)c(O)c1)C(=O)NCc1ccccc1` gave a remaining activity of 89.9%.
`O=C1C(Cl)=C(N2C(=O)CCC2=O)C(=O)c2ccccc21` has a remaining activity of 93%.
The remaining activity of `N#Cc1c(NC(=O)c2cccc3ccccc23)sc2c1CCCC2` is reported as 88.9%.
With `O=c1cc(-c2cccc3c2Sc2ccccc2S3)oc(N2CCOCC2)c1` the remaining activity was 98.3%.
`C[C@@H]1CCN(C(=O)CC#N)C[C@@H]1N(C)c1ncnc2[nH]ccc12` gave a remaining activity of 97.7%.
With `CN(C)C[C@H]1CCn2c(c(C3=C(c4cn(C)c5ccccc45)C(=O)NC3=O)c3ccccc32)C1` the remaining activity was 101%.
For `Cc1cn(-c2cc(NC(=O)c3ccc(C)c(Nc4nccc(-c5cccnc5)n4)c3)cc(C(F)(F)F)c2)cn1`, the remaining activity was 99%.
`COc1cc2ncnc(Nc3cccc(Cl)c3)c2cc1OC` gave a remaining activity of 92.4%.
For `O=C(Nc1cccc(Nc2nccc(Nc3cccc(C(F)(F)F)c3)n2)c1)C1CC1`, the remaining activity was 95.6%.
The remaining activity of `CN([C@@H](Cc1ccc(OS(=O)(=O)c2cccc3cnccc23)cc1)C(=O)N1CCN(c2ccccc2)CC1)S(=O)(=O)c1cccc2cnccc12` is reported as 87.7%.
`CCN(CC)C(=O)c1ccc(Nc2nc(OCC3CCCCC3)c3[nH]cnc3n2)cc1` gave a remaining activity of 110%.
`COc1cc2ncnc(Nc3ccc(O)c(Br)c3)c2cc1OC` has a remaining activity of 92.5%.
`Cc1cc2ncc(-c3ccccc3)nc2cc1C` has a remaining activity of 105%.
The remaining activity of `CCOc1nc(NC(=O)Cc2cc(OC)ccc2OC)cc(N)c1C#N` is reported as 88.1%.
`O=C(NC(NC(=S)Nc1ccc(F)c([N+](=O)[O-])c1)C(Cl)(Cl)Cl)C(c1ccccc1)c1ccccc1` (centres unmarked) has a remaining activity of 91.8%.
With `CCN(CC)CCNC(=O)c1c(C)[nH]c(/C=C2\C(=O)Nc3ccc(Cl)cc32)c1C` the remaining activity was 94.8%.
`Nc1cccc(-c2cc3c(Oc4cccc(O)c4)ncnc3[nH]2)c1` has a remaining activity of 85.5%.
`COc1cc2c(cc1OC)-c1[nH]nc(Nc3cccc(F)c3)c1C2` has a remaining activity of 93%.
For `c1ccc(-c2cnc(Nc3ccc(OCCN4CCCC4)cc3)s2)cc1`, the remaining activity was 92%.
